Published values collected from several papers.
A part holds a random share of what one study measured.

Study 1 — method: RNA Bind-n-Seq; form: RNA; matrix: in vitro; concentration: 365 nM; reference: no-protein control; direction: higher = stronger binding
Target: RNA binding protein fox-1 homolog 2, RRM domain, GST-SBP tag (RBFOX2, Homo sapiens, UniProt O43251-10, residues 100-194)
Setting: natural RNA segment, single round, ends assumed
Shared flanks, not repeated: GGGAGUUCUACAGUCCGACGAUC … UGGAAUUCUCGGGUGCCAA
Residues (chain): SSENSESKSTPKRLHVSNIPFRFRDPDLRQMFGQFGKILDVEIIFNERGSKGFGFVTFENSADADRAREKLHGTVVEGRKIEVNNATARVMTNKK
`AGAGGGGCUACACUAGCCCACCCCAUUUAGAGUGGUCCUGUCUACUCUACAGCAACUCUCUUGGGCUCUCAGCUCUUGCUUACACUGCUUCCUUUCUGGCCUCUAUGGUG`: “RBNS enrichment (R)” 0.33.
`UCUUUGUGCAUGGUGCAUGUCAAGUCAGGAAGCCAAGAAACCGUUGGCAUUAAAAUCUAGAUGCAUAGAGAUCCUUGCUAUGAGUUGUGGAUAGGAGUGGCUCCAUCUAU`: “RBNS enrichment (R)” 18.3.
For `UUCAGUAUUUUAUACAACUACUGCCACAUCCUUAUACUUUAUUGCUUUUCUGUCUUCUUCAACCUGGGAGAGACCCUGAAUUUGAGUGUGUUCUCUAAUCAAUAGUGGUU`, “RBNS enrichment (R)” read 0.666.
Under “RBNS enrichment (R)”, `AUUUUGGAUAUAUAAAUUCCUUAAGCUAUUGUAACCAUGUUUUAUUGCAAAGAUGUAAAAUAUGCCAGAUGUGUGUGAGUUGGAAAUCAAAAAAAGAAAAAUAAAAUAUG` is recorded as 0.822.
`UCUGGAGCUAGUCAGUGUCCUAGACCACCAGGACCUCUACUCAUUCAUGAGUUAGUUAUGCAGCAAGUCCCUAUAUACCUAGAAAUGCUCUUGUCAGAAGUGUCACUGCC` — result for “RBNS enrichment (R)”: 0.3.
Under “RBNS enrichment (R)”, `UCCACGGUGACAUGUCAUUUGAUUGUAAAUUAAGUGUUCUGAUUAGUAAGAACUAAGCAGGGGGCCACAUGCUCUCAAUGGAGACAAUAAAGUGUUGUCUUUUUCUUAUU` is recorded as 0.295.
`CAGCUUCCUUCCAAGUCUUCCUGACCACCUUGCACUAUUGGACUUUGGAAGGAGGUGCCUAUAGAAAACGAUUUUGAACAUACUUCAUCGCAGUGGACUGUGUCCCUCGG` — result for “RBNS enrichment (R)”: 0.713.
For `UGGCCAACAUAAUGUUUUCACAGUUCCUCUUUGUUGGAAGAAGUGUGUGACCUACAAGAUUCCUGGUUGAUACAGUUCAGGUGAGAAACUGUUUGAUUAUAGAAAAGACC`, “RBNS enrichment (R)” read 0.67.
`CUGGUCGCUGCAGAUUCUCAGCAGCACUUUUACUGUAUAUAGAAAUUGAAAUAAAGACCUCAGCUAUAACCUGGUGGUCAGACUCAUGUUUGUUUUGCUUUUUAUUUUUG` — result for “RBNS enrichment (R)”: 0.965.
`CUUCUCAACCCUAGACAAAGCCUUUGGCCAAGAGGGAGGUGCUGUUAGUUGGGCAGCCCUUCUGGGUUUCAGAGACCGGUGUUGGCUCUAGACUGGUCUCAUCUCCAUUG`: “RBNS enrichment (R)” 0.338.
`GUUCUUUAGUUAGCAGUUCAGGCUGGUUGGACAGGUUUGAAUCAAAUUGUACUUUGUUCCAUUGUUAAUUGAGAAACUGUUUCAAUAAAAUAUUCUUUUCUAUAGGUUGU` — result for “RBNS enrichment (R)”: 0.543.
For `UCACUGUGAGCAUGUCAGAGGCUUUCUGUGUAGAUGUCCUGCCAUGGGUGAUGUGUGAUCUACCAGUGGCUGGGUUCACCCAUCAGUAAUCAGAGCAAGACAAAUGAGAG`, “RBNS enrichment (R)” read 1.42.

Study 2 — method: competition protein-binding microarray; form: double-stranded DNA, one strand shown; matrix: in vitro; concentration: 2 µM; together with: Cbf1 competitor, 0.05 µM; direction: higher = stronger binding; shared flanks, not repeated: … GTCTTGATTCGCTTGACGCTGCTG
Target: Phosphate system positive regulatory protein PHO4, full length, GST-tagged (PHO4, Saccharomyces cerevisiae, UniProt P07270, residues 1-312)
Setting: whole 60-bp probe, lowest competitor level
Residues (chain): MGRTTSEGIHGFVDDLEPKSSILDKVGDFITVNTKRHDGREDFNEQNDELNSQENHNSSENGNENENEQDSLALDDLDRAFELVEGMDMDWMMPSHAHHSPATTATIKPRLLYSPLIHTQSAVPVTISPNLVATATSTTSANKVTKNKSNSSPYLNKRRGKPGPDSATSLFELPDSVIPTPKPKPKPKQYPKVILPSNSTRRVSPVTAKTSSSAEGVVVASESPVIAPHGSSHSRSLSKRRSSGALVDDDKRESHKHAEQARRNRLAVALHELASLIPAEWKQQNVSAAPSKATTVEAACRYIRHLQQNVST
The fluorescence intensity of `AAACCAAGGGAAGAAAACGTGAATACGGAGAAACTT` is reported as 9280 a.u.
With `AAAGCGGTAATTTGATAGGTGGGTGCAGATATCTAT` the fluorescence intensity was 4240 a.u.
With `AAATTACTAAGTTGGGGAGTGGGTGACGCCGTATGA` the fluorescence intensity was 4680 a.u.
`CTGGGTCCGTTACGATTCGTGCTTTAAGAGGTTTAA` has a fluorescence intensity of 5660 a.u.
With `TAATTTGTAGTATTGAACGTGACGGGAAACAAAAAA` the fluorescence intensity was 8260 a.u.
For `TCTTCGTTGTCTACCCACGCTCTTCCGGACCCTCTT`, the fluorescence intensity was 8520 a.u.
With `AGAAGGAAGTAACTGCAGGTGAAGCACAGGACGAAG` the fluorescence intensity was 5640 a.u.
`CTACGCTATGGAAACCGCGTGCCAGACTGGTAGAGT` has a fluorescence intensity of 12700 a.u.
The fluorescence intensity of `CTTTCCCGATCTTGGGTGGTGGGTGTAGCACATTTG` is reported as 5710 a.u.
For `GTCTTGTCTCATTGACATGTGGGTGTCCCCACTTCA`, the fluorescence intensity was 10500 a.u.
`CTTTTTTTTCTCTCGCCCGTGCCGATCCGTCTTCGA` gave a fluorescence intensity of 9330 a.u.
With `AAAGCGGTAATTTGCTACGTGGGTGCAGATATCTAT` the fluorescence intensity was 7530 a.u.
`ATATCTTCTAAATCGCACGGGTTCAAGATCGCAAAA` gave a fluorescence intensity of 9270 a.u.
`CATACCCAACCTTGTTATGTGGGTGAAGATATTTGT` gave a fluorescence intensity of 4330 a.u.
For `CTAACGAAGGTTTTTCACGTGCTGTACAAGCCAAGT`, the fluorescence intensity was 13800 a.u.
`TACTATAGGGGCCGACACGTTAGGTGATGACGATAA` gave a fluorescence intensity of 5770 a.u.
For `AGATGAGCGCTCAATCTCGTGAAGGCTATGTGTAGT`, the fluorescence intensity was 5950 a.u.
`CTTGCCGAGATGGTGTTCGTGACGGAAATTGTGGAA` has a fluorescence intensity of 5020 a.u.
For `TTTCTTATGAAAATCAGTGTGACAGTAATGAGACTT`, the fluorescence intensity was 3400 a.u.
`GTAATACAGAGGCTTCATGTGACGGGAGAAAGGAGA` gave a fluorescence intensity of 5040 a.u.
With `TTTACAAGCCAGAAAGCCGTGATGGCTTGATTATCA` the fluorescence intensity was 3240 a.u.
For `TCTCCTCACAATTTTCACGTGCTTTCGATCTTAGTT`, the fluorescence intensity was 17400 a.u.
`GCATTTTTCGGGGCGCCCGTGCAAAAACTAACTCCG` has a fluorescence intensity of 7330 a.u.

Study 3 — method: protein-binding microarray; form: double-stranded DNA, one strand shown; matrix: in vitro; concentration: 2540 nM top; setting: 60-bp whole probe; together with: salmon DNA 0.4 mg/ml; reference: random background probes; direction: higher = stronger binding; shared flanks, not repeated: GCCTAGCAC … GTCTTGATTCGCTTGACGCTGCTG
Target: Interferon regulatory factor 3, full length, phosphomimetic (IRF3, Homo sapiens, UniProt Q14653, residues 1-427, S386D/S396D/S398D/S402D/T404D/S405D)
Construct (chain): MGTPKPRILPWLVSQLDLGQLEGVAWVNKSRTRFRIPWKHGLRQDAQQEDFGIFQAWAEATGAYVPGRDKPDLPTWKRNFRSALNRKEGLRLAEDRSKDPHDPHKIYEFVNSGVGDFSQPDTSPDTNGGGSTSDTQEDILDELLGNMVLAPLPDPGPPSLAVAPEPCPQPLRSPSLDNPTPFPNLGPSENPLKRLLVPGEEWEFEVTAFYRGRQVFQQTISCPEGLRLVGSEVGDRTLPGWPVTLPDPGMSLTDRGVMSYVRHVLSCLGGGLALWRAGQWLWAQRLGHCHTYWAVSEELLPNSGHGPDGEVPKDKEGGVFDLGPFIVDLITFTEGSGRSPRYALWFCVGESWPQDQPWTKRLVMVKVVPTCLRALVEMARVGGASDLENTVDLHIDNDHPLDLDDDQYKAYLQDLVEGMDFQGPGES
`TCTCTTTCCTTCTTGATGCAGTGCTAG` — result for “fitted relative affinity”: 7.62 z-score.
For `GAAGATATCAGTTTCGAGACGTGCTAG`, “fitted relative affinity” read 3.44 z-score.
For `GACGGGTTCGACTTTCGGGACGTGCTA`, “fitted relative affinity” read 0.589 z-score.
`GACGGACTGGGTCTCGGGGCGTGCTAG`: “fitted relative affinity” -0.899 z-score.
For `TAAGGTATCGACTTTCGGTTAGTGCTA`, “fitted relative affinity” read 2.14 z-score.
`TTAGGTTTCCTTTTCCTTTCGTGCTAG`: “fitted relative affinity” 11.8 z-score.
`TTAGGACTCGACTATCGGTTAGTGCTA`: “fitted relative affinity” -0.24 z-score.
Under “fitted relative affinity”, `CCGGGGGGCACAGGGTGAGGGTGCTAG` is recorded as 0.231 z-score.
Under “fitted relative affinity”, `GACCAACTGGGGTTTCGAGACGTGCTA` is recorded as 0.534 z-score.
Under “fitted relative affinity”, `GTGTATATATAATATATATTCGTGCTA` is recorded as 0.32 z-score.
`GACGAACTGAGTCTCGAGGCGTGCTAG`: “fitted relative affinity” -0.454 z-score.
Under “fitted relative affinity”, `TTAGGTATCCTACAGCTTTAGTGCTAG` is recorded as 0.624 z-score.
Under “fitted relative affinity”, `GACGGTATCAGTATCGAGACGTGCTAG` is recorded as 3.38 z-score.
For `TTAGATCTCAGTCTCGAGTAGTGCTAG`, “fitted relative affinity” read 0.529 z-score.
`CTAGGACTGGGACTGGGTTAGTGCTAG`: “fitted relative affinity” -0.854 z-score.
For `GACGATTTCCGTTCCGAGACGTGCTAG`, “fitted relative affinity” read 4.53 z-score.
`TCCCTTCAACAGTGCTGGCTGTGCTAG`: “fitted relative affinity” 0.92 z-score.
`TTAGGTCTCGGTATCGCTTAGTGCTAG` — result for “fitted relative affinity”: 1.43 z-score.
For `TTAGGTTTCGACTATCGGTAAGTGCTA`, “fitted relative affinity” read 2.46 z-score.
For `TTAGGTTGCGGGACTGGGTTAGTGCTA`, “fitted relative affinity” read 1.21 z-score.

Study 4 — method: universal PBM; form: double-stranded DNA, one strand shown; matrix: in vitro; concentration: not given; direction: higher = stronger binding
Target: Sal-like protein 4, full length isoform B (SALL4, Homo sapiens, UniProt Q9UJQ4-2, residues 1-616)
Setting: 8-mer, flanks averaged, mean of replicates
`CTCGAAAC` gave an E-score of -5e-05.
The E-score of `CAATACGC` is reported as 0.141.
With `ACTGGAAC` the E-score was -0.106.
The E-score of `ACGGAGAA` is reported as 0.0398.
`GCATGCTA` gave an E-score of -0.0586.
The E-score of `ACTATACG` is reported as 0.136.
`AATGAATG` gave an E-score of 0.261.
For `GCGTGGAC`, the E-score was -0.216.
`AGTGGACA` gave an E-score of 0.021.
The E-score of `AGTACTCA` is reported as 0.138.
`GACATTTA` gave an E-score of 0.183.
With `CCCACGGG` the E-score was -0.339.
With `ACTTAATG` the E-score was 0.24.
With `TAACGTAA` the E-score was 0.224.
With `GGCATACA` the E-score was 0.0619.
The E-score of `AAATCCTC` is reported as -0.183.
`GCCCCAGC` has an E-score of -0.284.
For `AAGTGGGA`, the E-score was 0.142.
`ATGGCGCA` gave an E-score of -0.074.
The E-score of `CAGACACC` is reported as -0.0872.
`GTTAGGAA` has an E-score of -0.00608.
With `TAGGGATA` the E-score was 0.158.
With `ATCCCTGG` the E-score was -0.179.
